{"data": "Experimental data pooled from the literature", "note": "A part holds a random share of what one study measured. Values joined by “and” are separate records of one study, mostly repeats; a detail may differ.", "chain of UniProt P23975 (whole entry, looked up)": "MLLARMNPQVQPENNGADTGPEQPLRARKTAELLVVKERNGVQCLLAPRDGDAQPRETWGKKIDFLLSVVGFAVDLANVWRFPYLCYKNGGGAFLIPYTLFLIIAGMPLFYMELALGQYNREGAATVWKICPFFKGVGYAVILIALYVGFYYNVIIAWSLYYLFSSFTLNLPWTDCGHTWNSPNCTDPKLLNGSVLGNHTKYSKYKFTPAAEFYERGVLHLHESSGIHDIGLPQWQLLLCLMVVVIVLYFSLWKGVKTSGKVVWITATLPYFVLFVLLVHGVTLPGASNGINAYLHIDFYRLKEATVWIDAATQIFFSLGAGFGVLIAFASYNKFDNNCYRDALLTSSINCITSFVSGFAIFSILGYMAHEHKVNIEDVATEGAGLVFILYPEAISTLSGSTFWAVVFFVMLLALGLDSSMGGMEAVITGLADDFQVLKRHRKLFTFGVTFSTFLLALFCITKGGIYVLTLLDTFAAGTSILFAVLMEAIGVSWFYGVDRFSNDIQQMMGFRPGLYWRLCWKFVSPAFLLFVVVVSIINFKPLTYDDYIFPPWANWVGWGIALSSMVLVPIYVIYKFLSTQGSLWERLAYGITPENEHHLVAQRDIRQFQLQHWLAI", "chain of UniProt P50406 (whole entry, looked up)": "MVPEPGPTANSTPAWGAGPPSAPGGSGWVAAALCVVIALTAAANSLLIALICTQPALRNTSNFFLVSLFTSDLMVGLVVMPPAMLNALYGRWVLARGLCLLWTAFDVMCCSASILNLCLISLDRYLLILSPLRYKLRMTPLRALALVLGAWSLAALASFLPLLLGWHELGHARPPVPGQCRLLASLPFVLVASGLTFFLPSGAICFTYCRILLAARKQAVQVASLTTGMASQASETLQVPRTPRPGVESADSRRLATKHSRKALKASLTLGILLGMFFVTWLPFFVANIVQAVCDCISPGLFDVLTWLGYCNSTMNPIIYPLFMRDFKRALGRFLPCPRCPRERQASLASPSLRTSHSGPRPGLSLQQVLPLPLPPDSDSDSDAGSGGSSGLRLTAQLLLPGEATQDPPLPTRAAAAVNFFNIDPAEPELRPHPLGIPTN", "chain of UniProt P21917 (whole entry, looked up)": "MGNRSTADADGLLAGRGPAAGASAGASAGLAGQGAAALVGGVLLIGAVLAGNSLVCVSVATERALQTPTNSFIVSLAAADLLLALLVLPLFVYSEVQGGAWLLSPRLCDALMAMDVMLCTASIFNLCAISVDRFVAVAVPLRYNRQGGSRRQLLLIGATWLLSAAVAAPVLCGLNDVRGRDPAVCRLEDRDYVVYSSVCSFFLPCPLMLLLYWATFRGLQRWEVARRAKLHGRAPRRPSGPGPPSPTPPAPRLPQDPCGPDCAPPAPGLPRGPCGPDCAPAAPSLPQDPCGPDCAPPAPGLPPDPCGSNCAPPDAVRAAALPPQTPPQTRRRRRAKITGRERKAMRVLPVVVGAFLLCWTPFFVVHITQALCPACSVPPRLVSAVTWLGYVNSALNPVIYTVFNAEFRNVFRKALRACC", "chain of UniProt P21918 (whole entry, looked up)": "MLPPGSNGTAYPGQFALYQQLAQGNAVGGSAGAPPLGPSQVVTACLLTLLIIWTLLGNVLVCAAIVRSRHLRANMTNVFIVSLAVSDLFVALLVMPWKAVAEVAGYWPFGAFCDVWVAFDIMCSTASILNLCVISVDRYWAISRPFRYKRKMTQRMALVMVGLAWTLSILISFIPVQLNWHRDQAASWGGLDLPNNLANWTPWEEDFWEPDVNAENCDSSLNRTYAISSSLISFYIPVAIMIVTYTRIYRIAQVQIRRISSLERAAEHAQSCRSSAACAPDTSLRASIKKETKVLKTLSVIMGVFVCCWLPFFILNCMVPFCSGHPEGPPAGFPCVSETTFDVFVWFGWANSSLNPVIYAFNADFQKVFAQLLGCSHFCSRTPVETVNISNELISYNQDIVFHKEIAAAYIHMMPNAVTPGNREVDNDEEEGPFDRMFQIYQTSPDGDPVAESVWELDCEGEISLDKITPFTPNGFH", "chain of UniProt P35372 (whole entry, looked up)": "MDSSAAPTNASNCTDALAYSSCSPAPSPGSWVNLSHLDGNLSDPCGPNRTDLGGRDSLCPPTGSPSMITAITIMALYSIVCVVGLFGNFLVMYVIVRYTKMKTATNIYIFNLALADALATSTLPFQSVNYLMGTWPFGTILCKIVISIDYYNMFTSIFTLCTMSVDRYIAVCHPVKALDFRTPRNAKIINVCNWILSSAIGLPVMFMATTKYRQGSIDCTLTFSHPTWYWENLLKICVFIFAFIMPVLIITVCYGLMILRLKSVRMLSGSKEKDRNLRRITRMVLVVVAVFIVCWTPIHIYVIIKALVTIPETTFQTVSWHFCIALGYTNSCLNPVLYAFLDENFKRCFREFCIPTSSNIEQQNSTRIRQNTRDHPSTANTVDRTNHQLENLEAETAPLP"}
{"data": "Series 1", "target": "DNA polymerase theta, ATPase domain (POLQ, Homo sapiens, UniProt O75417)", "read-out": "enzyme activity", "action": "inhibitor", "tested at": "77 µM", "baseline": "untreated", "chain of UniProt O75417 (whole entry, unmodified, looked up)": "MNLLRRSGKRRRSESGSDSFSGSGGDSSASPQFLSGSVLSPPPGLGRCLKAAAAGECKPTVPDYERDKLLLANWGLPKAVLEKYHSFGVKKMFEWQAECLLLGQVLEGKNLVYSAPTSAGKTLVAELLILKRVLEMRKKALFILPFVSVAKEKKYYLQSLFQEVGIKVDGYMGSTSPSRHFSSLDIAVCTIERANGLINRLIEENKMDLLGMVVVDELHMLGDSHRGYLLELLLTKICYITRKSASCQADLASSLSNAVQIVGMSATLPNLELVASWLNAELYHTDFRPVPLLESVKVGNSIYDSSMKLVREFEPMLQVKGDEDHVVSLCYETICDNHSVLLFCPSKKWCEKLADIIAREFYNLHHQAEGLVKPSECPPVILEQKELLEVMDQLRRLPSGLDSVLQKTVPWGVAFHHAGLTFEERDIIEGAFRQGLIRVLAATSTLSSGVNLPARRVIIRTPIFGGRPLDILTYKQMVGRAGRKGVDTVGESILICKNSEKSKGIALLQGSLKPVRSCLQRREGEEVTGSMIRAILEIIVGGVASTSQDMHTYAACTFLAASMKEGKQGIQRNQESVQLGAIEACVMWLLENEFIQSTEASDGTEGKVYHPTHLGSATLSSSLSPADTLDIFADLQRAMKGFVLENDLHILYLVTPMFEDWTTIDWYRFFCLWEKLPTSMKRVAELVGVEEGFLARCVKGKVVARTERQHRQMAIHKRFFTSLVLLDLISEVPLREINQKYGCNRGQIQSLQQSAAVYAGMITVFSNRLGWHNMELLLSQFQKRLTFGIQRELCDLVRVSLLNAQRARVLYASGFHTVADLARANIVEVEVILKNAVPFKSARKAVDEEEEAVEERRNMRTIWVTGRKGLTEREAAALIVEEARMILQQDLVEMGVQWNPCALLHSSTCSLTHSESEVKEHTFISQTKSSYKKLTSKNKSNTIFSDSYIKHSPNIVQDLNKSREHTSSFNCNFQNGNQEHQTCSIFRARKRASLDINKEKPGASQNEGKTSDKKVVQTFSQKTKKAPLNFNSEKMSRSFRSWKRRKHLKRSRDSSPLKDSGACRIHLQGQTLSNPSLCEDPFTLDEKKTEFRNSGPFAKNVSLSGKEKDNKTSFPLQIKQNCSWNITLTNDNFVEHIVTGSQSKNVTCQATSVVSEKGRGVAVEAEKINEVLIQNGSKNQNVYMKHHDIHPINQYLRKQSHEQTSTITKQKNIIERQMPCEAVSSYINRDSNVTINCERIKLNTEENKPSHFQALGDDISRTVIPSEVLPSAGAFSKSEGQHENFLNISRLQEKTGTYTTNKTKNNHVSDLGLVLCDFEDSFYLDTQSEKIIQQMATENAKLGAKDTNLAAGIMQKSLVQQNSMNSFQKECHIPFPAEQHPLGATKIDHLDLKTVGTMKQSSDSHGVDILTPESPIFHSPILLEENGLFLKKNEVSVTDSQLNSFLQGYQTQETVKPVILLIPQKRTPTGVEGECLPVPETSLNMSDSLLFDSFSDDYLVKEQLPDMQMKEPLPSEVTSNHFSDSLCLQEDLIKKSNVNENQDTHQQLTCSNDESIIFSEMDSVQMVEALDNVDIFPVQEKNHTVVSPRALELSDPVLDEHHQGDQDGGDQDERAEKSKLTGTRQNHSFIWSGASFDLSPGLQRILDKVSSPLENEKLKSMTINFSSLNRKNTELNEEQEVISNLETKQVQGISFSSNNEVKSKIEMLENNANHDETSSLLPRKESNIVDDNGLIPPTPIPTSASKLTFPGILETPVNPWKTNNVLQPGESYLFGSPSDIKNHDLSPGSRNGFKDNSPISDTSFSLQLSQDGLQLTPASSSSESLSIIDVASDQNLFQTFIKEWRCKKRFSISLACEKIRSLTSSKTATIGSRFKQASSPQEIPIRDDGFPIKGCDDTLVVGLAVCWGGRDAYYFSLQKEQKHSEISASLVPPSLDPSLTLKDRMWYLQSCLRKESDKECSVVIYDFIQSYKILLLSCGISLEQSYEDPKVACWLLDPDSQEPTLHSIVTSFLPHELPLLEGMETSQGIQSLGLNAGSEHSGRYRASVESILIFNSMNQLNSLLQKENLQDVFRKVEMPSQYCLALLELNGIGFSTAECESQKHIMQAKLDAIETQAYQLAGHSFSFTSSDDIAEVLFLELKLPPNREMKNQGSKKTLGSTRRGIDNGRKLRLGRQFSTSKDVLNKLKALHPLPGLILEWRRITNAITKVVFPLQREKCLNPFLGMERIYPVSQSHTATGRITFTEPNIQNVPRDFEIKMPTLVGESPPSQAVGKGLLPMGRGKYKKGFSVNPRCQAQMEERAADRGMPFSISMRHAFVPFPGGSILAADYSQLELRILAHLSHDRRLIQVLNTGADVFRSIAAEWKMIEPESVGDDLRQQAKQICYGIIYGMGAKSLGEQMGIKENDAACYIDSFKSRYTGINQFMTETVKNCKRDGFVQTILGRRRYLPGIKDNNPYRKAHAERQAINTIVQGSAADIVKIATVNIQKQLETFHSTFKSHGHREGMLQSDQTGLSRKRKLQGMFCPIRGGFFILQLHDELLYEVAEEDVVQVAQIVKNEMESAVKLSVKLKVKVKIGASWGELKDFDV"}
{"SMILES": "CCC1(CC)C(=O)C=CNC1=O", "remaining activity [%]": 101}
{"SMILES": "CN1[C@@H]2CC[C@H]1C[C@@H](OC1c3ccccc3CCc3ccccc31)C2", "remaining activity [%]": 101}
{"SMILES": "CC(C)(C)[C@]1(O)C[C@@H]2OC(=O)C[C@@]23C(=O)O[C@@H]2OC(=O)[C@H](O)[C@]213", "remaining activity [%]": 101}
{"SMILES": "CC[C@@H](C)C(=O)O[C@H]1[C@H](O)[C@H]2[C@@H](CN3C[C@@H](C)CC[C@H]3[C@@]2(C)O)[C@@H]2C[C@]34O[C@]5(O)[C@@H](OC(=O)[C@@](C)(O)CC)CC[C@@]3(C)[C@@H]5[C@@H](OC(C)=O)[C@@H](OC(C)=O)[C@H]4[C@@]21O", "remaining activity [%]": 94.7}
{"SMILES": "CC(C)NCC(O)c1ccccc1Cl (centres unmarked)", "remaining activity [%]": 101}
{"SMILES": "C[C@@H]1C[C@@H]([C@H](O)CC2CC(=O)NC(=O)C2)C(=O)[C@@H](C)C1", "remaining activity [%]": 101}
{"SMILES": "COc1ccc2c(c1OC)C(=O)O[C@@H]2[C@H]1c2cc3c(cc2CCN1C)OCO3", "remaining activity [%]": 98.2}
{"SMILES": "COc1ccc2c3c([nH]c2c1)C(C)=NCC3", "remaining activity [%]": 101}
{"SMILES": "CC[C@@H]1/C=C/C=C/C[C@H](C)[C@H](O)[C@](C)(O)C(=O)[C@H](C)[C@@H](O)[C@H](C)C(=O)[C@H](C)[C@@H](O)[C@H](C)/C=C/C(=O)O[C@H]2[C@@H](C)[C@@H](CC1)O[C@@]1(CC[C@@H](C)[C@@H](C[C@H](C)O)O1)[C@@H]2C", "remaining activity [%]": 102}
{"SMILES": "CN[C@@H]1C[C@@H](c2ccc(Cl)c(Cl)c2)c2ccccc21", "remaining activity [%]": 111}
{"SMILES": "Nc1nc(N)nc(NC2CC2)n1", "remaining activity [%]": 89.2}
{"SMILES": "CN(C)[C@@H]1C(=O)C(C(N)=O)=C(O)[C@@]2(O)C(=O)C3=C(O)c4c(O)cccc4[C@@](C)(O)C3[C@H](O)C12 (some centres unmarked)", "remaining activity [%]": 98.8}
{"data": "Series 2", "organism": "Vesicular stomatitis virus", "read-out": "pseudovirus infection", "method": "FDA-approved drug library screen", "tested at": "concentration not given", "notes": "VSV-G control pseudotype", "baseline": "vehicle"}
{"Structure (SMILES)": "Cl.NCC(=O)CCC(=O)O", "GFP-positive cells [%]": 124}
{"Structure (SMILES)": "CO[C@@H]1[C@@H](OC(N)=O)[C@@H](O)[C@H](Oc2ccc3c([O-])c(NC(=O)c4ccc(O)c(CC=C(C)C)c4)c(=O)oc3c2C)OC1(C)C.[Na+]", "GFP-positive cells [%]": 118}
{"Structure (SMILES)": "CCN(CC)CCNC(=O)c1cc(Cl)c(N)cc1OC.Cl", "GFP-positive cells [%]": 124}
{"Structure (SMILES)": "CC(C(=O)[O-])c1cccc(Oc2ccccc2)c1.CC(C(=O)[O-])c1cccc(Oc2ccccc2)c1.[Ca+2] (centres unmarked)", "GFP-positive cells [%]": 105}
{"Structure (SMILES)": "C[C@@H]1[C@H](O)[C@@H](C)/C=C/C=C/CC/C=C/C=C/C=C/C=C/[C@H](O[C@H]2O[C@@H](C)[C@H](O)[C@@H](N)[C@H]2O)C[C@@H]2O[C@](O)(C[C@@H](O)[C@H](O)CC[C@@H](O)C[C@@H](O)C[C@@H](O)CC(=O)O[C@H]1C)C[C@H](O)[C@H]2C(=O)O", "GFP-positive cells [%]": 100}
{"Structure (SMILES)": "CCN1CC(CCN2CCOCC2)C(c2ccccc2)(c2ccccc2)C1=O.Cl.O (centres unmarked)", "GFP-positive cells [%]": 136}
{"Structure (SMILES)": "Br.COc1ccc2c(c1)[C@]13CCCC[C@@H]1[C@H](C2)N(C)CC3.O", "GFP-positive cells [%]": 137}
{"Structure (SMILES)": "CCCCC(O)c1ccccc1 (centres unmarked)", "GFP-positive cells [%]": 130}
{"Structure (SMILES)": "COc1cc2nccc(Oc3ccc(NC(=O)NC4CC4)c(Cl)c3)c2cc1C(N)=O", "GFP-positive cells [%]": 117}
{"Structure (SMILES)": "CC(C)NCC(O)COc1ccc(COCCOC(C)C)cc1.CC(C)NCC(O)COc1ccc(COCCOC(C)C)cc1.O=C(O)/C=C/C(=O)O (racemic)", "GFP-positive cells [%]": 107}
{"Structure (SMILES)": "C[C@]1(Cn2ccnn2)[C@H](C(=O)O)N2C(=O)C[C@H]2S1(=O)=O", "GFP-positive cells [%]": 98.3}
{"Structure (SMILES)": "COc1ccc(C[C@@H](C)NC[C@H](O)c2ccc(O)c(NC=O)c2)cc1.COc1ccc(C[C@@H](C)NC[C@H](O)c2ccc(O)c(NC=O)c2)cc1.O=C(O)/C=C/C(=O)O", "GFP-positive cells [%]": 126}
{"Structure (SMILES)": "CC[C@@H]1C(=O)OC[C@@H]1Cc1cncn1C.Cl", "GFP-positive cells [%]": 105}
{"Structure (SMILES)": "NC[C@H](O)c1ccc(O)c(O)c1.O.O=C(O)C(O)C(O)C(=O)O", "GFP-positive cells [%]": 114}
{"Structure (SMILES)": "C[C@@H]1C[C@H]2[C@@H]3CCC4=CC(=O)C=C[C@]4(C)[C@@]3(F)[C@@H](O)C[C@]2(C)[C@@]1(O)C(=O)CO", "GFP-positive cells [%]": 125}
{"Structure (SMILES)": "O=C([O-])[C@H](O)[C@@H](O)[C@H](O)[C@H](O)CO.[Na+]", "GFP-positive cells [%]": 105}
{"Structure (SMILES)": "CNC(=C[N+](=O)[O-])NCCSCc1ccc(CN(C)C)o1.Cl", "GFP-positive cells [%]": 94.5}
{"Structure (SMILES)": "FC(F)(F)C(Cl)Br (centres unmarked)", "GFP-positive cells [%]": 119}
{"Structure (SMILES)": "O=C(O)CCCc1ccc(N(CCCl)CCCl)cc1", "GFP-positive cells [%]": 100}
{"Structure (SMILES)": "CCN(CC)C(=O)C1(c2ccccc2)CC1CN.Cl (centres unmarked)", "GFP-positive cells [%]": 120}
{"Structure (SMILES)": "CC(O)(P(=O)([O-])O)P(=O)([O-])O.[Na+].[Na+]", "GFP-positive cells [%]": 115}
{"Structure (SMILES)": "S=P(N1CC1)(N1CC1)N1CC1", "GFP-positive cells [%]": 108}
{"Structure (SMILES)": "NC(=O)N/N=C/c1ccc([N+](=O)[O-])o1", "GFP-positive cells [%]": 92.5}
{"Structure (SMILES)": "CN(C)[C@@H]1C(=O)C(C(N)=O)=C(O)[C@@]2(O)C(=O)C3=C(O)c4c(O)cccc4[C@@](C)(O)[C@H]3[C@H](O)[C@@H]12", "GFP-positive cells [%]": 80.1}
{"Structure (SMILES)": "S=c1nc[nH]c2nc[nH]c12", "GFP-positive cells [%]": 98.3}
{"data": "Series 3", "Compound": "Cn1cncc1[C@@](O)(COc1ccc(C#N)cc1-c1ccc(OC(F)(F)F)cc1)c1ccc(C#N)cc1", "read-out": "ligand displacement", "tested at": "10 µM"}
{"target": "OPRM1 (Homo sapiens, UniProt P35372)", "inhibition [%]": -3.25}
{"target": "OPRD1 (Homo sapiens, UniProt P41143)", "inhibition [%]": 2.4}
{"target": "HRH1 (Homo sapiens, UniProt P35367)", "inhibition [%]": 43.5}
{"target": "ADRA1D (Homo sapiens, UniProt P25100)", "inhibition [%]": -18.6}
{"target": "DRD5 (Homo sapiens, UniProt P21918)", "inhibition [%]": -12.4}
{"target": "ADRA1B (Homo sapiens, UniProt P35368)", "inhibition [%]": 5.97}
{"target": "CHRM5 (Homo sapiens, UniProt P08912)", "inhibition [%]": 1.23}
{"target": "HTR6 (Homo sapiens, UniProt P50406)", "inhibition [%]": 14.2}
{"target": "SLC6A2 (Homo sapiens, UniProt P23975)", "inhibition [%]": 5.18}
{"target": "ADRA2A (Homo sapiens, UniProt P08913)", "inhibition [%]": 3.37}
{"target": "DRD4 (Homo sapiens, UniProt P21917)", "inhibition [%]": 6.23}
{"data": "Single results of other studies", "action": "inhibitor"}
{"Structure (SMILES)": "CN(C(=O)c1ccn2ncc(-c3ccc(C(N)=O)cc3)c2c1)c1ccc(C#N)cn1", "target": "C. parvum PI4K Y705A", "assay": "enzyme activity, ADP-Glo", "scale": "baseline: mutant over wild type", "quantity": "fold IC50 shift", "value": "9.05 and 10.6"}
{"Structure (SMILES)": "CC#CC(=O)N1CCC[C@H]1c1nc(-c2ccc(C(=O)Nc3ccccn3)cc2)c2c(N)nccn12", "target": "DYRK1B (Homo sapiens, UniProt Q9Y463)", "assay": "cell-free assay", "conditions": "1 µM", "quantity": "inhibition", "value": "3%"}
{"note": "A few entries again (series 3):"}
{"target": "OPRD1 (Homo sapiens, UniProt P41143)", "inhibition [%]": 2.4}
{"target": "CHRM5 (Homo sapiens, UniProt P08912)", "inhibition [%]": 1.23}
{"target": "DRD5 (Homo sapiens, UniProt P21918)", "inhibition [%]": -12.4}
{"target": "ADRA2A (Homo sapiens, UniProt P08913)", "inhibition [%]": 3.37}
{"target": "SLC6A2 (Homo sapiens, UniProt P23975)", "inhibition [%]": 5.18}
{"target": "HTR6 (Homo sapiens, UniProt P50406)", "inhibition [%]": 14.2}
{"target": "OPRM1 (Homo sapiens, UniProt P35372)", "inhibition [%]": -3.25}
{"target": "DRD4 (Homo sapiens, UniProt P21917)", "inhibition [%]": 6.23}
